{"data": "Published values from different studies", "MAPK8": "Mitogen-activated protein kinase 8 (MAPK8, Homo sapiens, UniProt P45983)", "note": "“And” joins repeats or separate records; there may be more than shown. ± gives the spread as reported.", "chain of UniProt Q92633 (whole entry, looked up)": "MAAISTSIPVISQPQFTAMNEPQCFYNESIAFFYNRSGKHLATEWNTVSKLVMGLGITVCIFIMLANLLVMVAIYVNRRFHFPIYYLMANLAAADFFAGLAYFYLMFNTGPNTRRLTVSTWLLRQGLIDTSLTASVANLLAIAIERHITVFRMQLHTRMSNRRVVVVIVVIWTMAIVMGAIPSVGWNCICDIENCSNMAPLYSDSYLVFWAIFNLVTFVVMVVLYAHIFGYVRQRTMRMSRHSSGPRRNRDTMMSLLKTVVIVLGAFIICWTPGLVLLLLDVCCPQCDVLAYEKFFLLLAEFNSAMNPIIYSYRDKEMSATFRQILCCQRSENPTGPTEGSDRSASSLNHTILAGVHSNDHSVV", "chain of UniProt P46089 (whole entry, unmodified, looked up)": "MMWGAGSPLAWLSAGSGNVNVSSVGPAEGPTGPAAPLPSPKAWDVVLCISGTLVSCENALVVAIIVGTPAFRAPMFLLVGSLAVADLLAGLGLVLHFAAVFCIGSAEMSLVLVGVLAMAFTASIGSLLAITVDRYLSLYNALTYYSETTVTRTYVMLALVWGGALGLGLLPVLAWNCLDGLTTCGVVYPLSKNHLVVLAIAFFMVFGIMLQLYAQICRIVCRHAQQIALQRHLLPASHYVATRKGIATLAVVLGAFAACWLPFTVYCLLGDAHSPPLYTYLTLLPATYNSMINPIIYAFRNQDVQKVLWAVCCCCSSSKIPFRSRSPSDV", "chain of UniProt P45983 (whole entry, looked up)": "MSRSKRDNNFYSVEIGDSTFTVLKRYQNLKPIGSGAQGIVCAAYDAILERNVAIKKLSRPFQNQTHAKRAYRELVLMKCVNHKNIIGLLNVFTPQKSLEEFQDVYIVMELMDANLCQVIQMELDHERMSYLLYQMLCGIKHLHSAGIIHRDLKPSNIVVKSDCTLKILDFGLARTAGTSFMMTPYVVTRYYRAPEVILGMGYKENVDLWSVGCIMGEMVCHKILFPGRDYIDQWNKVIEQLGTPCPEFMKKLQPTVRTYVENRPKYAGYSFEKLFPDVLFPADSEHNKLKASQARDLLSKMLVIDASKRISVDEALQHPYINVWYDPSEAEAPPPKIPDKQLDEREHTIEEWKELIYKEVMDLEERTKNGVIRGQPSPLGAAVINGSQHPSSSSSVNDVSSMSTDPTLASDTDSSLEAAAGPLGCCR", "chain of UniProt O75385 (whole entry, looked up)": "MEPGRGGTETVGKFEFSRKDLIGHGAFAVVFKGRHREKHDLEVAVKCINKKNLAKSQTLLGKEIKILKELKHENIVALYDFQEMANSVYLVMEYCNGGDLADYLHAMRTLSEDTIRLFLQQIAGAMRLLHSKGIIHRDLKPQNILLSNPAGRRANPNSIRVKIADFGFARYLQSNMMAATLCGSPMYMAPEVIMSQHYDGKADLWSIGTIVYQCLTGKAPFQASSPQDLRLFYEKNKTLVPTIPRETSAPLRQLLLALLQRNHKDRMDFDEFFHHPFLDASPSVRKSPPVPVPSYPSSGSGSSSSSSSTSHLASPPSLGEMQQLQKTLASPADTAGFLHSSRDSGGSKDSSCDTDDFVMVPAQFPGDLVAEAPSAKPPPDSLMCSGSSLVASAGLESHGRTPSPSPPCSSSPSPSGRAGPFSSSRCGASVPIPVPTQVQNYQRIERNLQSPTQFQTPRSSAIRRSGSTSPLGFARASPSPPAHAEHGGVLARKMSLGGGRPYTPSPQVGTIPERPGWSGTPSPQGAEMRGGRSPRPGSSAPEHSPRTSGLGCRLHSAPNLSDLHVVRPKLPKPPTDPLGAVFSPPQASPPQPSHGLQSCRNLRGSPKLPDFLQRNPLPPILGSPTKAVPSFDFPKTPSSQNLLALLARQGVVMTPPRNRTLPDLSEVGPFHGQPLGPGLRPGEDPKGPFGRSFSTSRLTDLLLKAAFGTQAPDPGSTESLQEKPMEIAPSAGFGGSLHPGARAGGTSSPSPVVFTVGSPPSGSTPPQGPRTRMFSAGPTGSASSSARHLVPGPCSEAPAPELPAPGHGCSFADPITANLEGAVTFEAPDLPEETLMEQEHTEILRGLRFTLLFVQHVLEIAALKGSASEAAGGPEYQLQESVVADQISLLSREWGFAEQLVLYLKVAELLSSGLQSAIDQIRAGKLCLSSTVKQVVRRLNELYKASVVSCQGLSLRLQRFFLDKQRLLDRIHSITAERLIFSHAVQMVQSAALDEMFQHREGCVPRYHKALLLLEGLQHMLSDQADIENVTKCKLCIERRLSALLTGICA", "chain of UniProt Q15910 (whole entry, looked up)": "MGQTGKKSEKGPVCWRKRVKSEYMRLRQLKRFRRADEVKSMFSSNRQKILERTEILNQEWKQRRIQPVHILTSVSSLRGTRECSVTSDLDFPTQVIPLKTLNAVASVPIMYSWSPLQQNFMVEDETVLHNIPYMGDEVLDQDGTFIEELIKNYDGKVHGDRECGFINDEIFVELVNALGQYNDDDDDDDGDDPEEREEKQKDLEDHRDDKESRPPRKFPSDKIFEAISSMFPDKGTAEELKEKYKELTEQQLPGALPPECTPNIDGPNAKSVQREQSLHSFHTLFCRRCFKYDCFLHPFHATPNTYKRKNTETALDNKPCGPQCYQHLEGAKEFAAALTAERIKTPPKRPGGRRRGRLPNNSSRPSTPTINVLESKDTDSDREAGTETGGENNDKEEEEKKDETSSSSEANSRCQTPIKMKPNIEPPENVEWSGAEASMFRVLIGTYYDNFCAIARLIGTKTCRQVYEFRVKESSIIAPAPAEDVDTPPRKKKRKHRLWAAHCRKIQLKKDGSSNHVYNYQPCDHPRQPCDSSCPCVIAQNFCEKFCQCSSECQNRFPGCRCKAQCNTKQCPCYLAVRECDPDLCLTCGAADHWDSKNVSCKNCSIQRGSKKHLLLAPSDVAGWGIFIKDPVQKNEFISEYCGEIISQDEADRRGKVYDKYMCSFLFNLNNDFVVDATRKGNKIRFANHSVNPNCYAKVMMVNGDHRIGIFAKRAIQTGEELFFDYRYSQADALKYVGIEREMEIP", "chain of UniProt P02754 (whole entry, unmodified, looked up)": "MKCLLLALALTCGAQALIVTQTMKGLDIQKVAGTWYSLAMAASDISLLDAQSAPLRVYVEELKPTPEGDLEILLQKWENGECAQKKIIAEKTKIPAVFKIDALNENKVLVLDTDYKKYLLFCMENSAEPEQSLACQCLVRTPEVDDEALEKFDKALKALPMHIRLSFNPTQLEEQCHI", "chain of UniProt Q96S37 (whole entry, looked up)": "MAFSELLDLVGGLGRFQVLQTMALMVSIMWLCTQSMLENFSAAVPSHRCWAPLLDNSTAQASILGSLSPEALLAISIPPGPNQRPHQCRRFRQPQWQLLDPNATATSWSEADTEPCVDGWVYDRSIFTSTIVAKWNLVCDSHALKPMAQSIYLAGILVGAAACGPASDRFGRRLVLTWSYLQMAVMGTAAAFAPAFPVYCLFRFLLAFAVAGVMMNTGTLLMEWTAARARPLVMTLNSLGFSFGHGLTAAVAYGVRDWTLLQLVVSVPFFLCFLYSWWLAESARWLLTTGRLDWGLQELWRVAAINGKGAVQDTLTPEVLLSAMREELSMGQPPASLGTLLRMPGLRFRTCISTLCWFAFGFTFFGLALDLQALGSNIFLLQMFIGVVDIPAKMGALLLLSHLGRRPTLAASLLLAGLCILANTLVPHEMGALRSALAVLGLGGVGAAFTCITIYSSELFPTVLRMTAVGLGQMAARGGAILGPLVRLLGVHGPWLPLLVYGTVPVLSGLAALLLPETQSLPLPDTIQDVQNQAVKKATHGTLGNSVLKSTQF", "chain of UniProt O35433 (whole entry, looked up)": "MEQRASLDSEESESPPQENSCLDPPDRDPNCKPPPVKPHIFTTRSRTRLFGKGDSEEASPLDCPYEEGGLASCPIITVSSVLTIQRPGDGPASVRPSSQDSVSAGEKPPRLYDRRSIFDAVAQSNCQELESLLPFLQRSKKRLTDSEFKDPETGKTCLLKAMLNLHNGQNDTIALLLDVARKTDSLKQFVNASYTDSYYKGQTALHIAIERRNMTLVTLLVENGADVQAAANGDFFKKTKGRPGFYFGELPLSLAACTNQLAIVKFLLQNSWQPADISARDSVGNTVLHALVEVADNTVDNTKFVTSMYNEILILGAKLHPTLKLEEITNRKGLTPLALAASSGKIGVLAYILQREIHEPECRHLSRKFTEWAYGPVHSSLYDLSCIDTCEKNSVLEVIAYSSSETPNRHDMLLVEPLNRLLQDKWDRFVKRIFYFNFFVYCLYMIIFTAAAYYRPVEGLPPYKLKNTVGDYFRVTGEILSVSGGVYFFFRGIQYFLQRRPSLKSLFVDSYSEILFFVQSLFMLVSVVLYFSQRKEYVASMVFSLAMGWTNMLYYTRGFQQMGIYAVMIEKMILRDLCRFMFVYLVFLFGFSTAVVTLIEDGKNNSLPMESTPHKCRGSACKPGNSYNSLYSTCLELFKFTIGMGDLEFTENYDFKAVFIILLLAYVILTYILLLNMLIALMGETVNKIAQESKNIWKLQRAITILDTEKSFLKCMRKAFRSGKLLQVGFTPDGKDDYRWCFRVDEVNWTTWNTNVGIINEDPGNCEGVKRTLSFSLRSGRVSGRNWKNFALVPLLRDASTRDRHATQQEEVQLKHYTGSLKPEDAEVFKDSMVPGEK"}
{"Compound": "O=C(NS(=O)(=O)c1cccs1)c1cc2ccccc2n1Cc1ccc(Br)c2ccccc12", "target": "SLC22A12 (Homo sapiens, UniProt Q96S37)", "test": "binding, surface plasmon resonance", "measurement": "dissociation rate constant", "result": "0.0092 s⁻¹"}
{"Compound": "CC(C)Oc1cc(Cl)ccc1CNc1cc(-c2ccccc2)nc2ncnn12", "target": "GPR3 (Homo sapiens, UniProt P46089, M156A)", "test": "cAMP level, cAMP GloSensor", "setting": "300 nM", "scale": "higher = more cAMP", "measurement": "cAMP luminescence", "result": "40900 a.u. and 27100 a.u. and 24600 a.u. and 28400 a.u."}
{"Compound": "OC[C@H]1O[C@@H](Oc2ccc3ccccc3c2)[C@H](O)[C@@H](O)[C@H]1O", "target": "Adhesin FmlH, lectin domain (Escherichia coli, UniProt Q1RBS0)", "test": "binding to desialylated mucin, ELISA competition", "system": "UPEC UTI89", "setting": "100 µM", "measurement": "inhibition", "result": "78.8 ± 2.1%"}
{"Compound": "C/C1=C\\CC/C(C)=C/CC(C)(C)/C=C/C1", "target": "Trpv1 (Rattus norvegicus, UniProt O35433)", "test": "inhibitor, outside-out patch clamp", "setting": "10 µM, together with: pH 5.5 activation", "measurement": "remaining current fraction", "result": "0.58 ± 0.02"}
{"Compound": "COc1cc(C2C(NC(=O)c3ccc(NC(=O)OC(C)(C)C)cc3)(C(=O)O)C(c3ccc(OC(=O)c4cccs4)c(OC)c3)C2(NC(=O)c2ccc(NC(=O)OC(C)(C)C)cc2)C(=O)O)ccc1OC(=O)c1cccs1 (stereo not shown)", "target": "GLP1R (Homo sapiens, UniProt P43220, F230A)", "test": "cAMP accumulation, agonist", "setting": "receptor mutant", "scale": "reference: wild type", "measurement": "Emax", "result": "43.7 ± 4.7%"}
{"Compound": "CN(C)c1ccc(-n2cc(COC(=O)[C@@]3(C)C=C(C(=O)OC(C)(C)C)C(=O)CC3)nn2)cc1", "target": "MAPK8", "test": "D-peptide binding, inhibitor, FP peptide displacement", "setting": "0.7812 µM", "scale": "lower is stronger displacement", "measurement": "fraction bound", "result": 0.948}
{"Compound": "CCN(CC)C(CO)c1cccc2c(C)c(C)oc12 (stereo not shown)", "target": "LPAR1 (Homo sapiens, UniProt Q92633)", "test": "G-protein dissociation, agonist, NanoBiT", "system": "HEK-293T", "setting": "10 µM, wild-type receptor", "scale": "reference: baseline luminescence", "measurement": "fold change", "result": "0.605 and 0.743 and 0.671 and 0.735 and 0.678 and 0.556"}
{"Compound": "CSc1cc(C)[nH]c(=O)c1CNC(=O)c1c(C)n(C(C)C2CCC(NC3(C)COC3)CC2)c2ccccc12 (stereo not shown)", "target": "EZH2 (Homo sapiens, UniProt Q15910)", "test": "binding, TR-FRET", "setting": "together with: H3K27me3 activating peptide", "measurement": "residence time", "result": "26400 min"}
{"Compound": "O=C(CN1CCOCC1)N1CCN(CC(OCc2ccc3ccccc3c2)c2ccc(Cl)cc2Cl)CC1 (stereo not shown)", "target": "ULK1 (Homo sapiens, UniProt O75385)", "test": "enzyme activity, inhibitor, ADP detection", "setting": "0.1 µM", "measurement": "activity vs control", "result": "107%"}
{"Compound": "CN1CCCN(c2cnc3c(cc(C(=O)NCc4ccc(Cl)cc4)c(=O)n3CC(=O)N3CC(C)(F)C3)n2)C1=O", "target": "DNA polymerase catalytic subunit (Human cytomegalovirus, UniProt P08546)", "test": "enzyme activity, inhibitor", "setting": "retest", "measurement": "Hill slope", "result": 0.7}
{"Compound": "C=C1CC2(C(=O)OC)C=C(C(=O)OC(C)(C)C)C(=O)C1C2 (stereo not shown)", "target": "MAPK8", "test": "D-peptide binding, inhibitor, FP peptide displacement", "setting": "62.5 µM", "scale": "lower is stronger displacement", "measurement": "fraction bound", "result": 0.491}
{"Compound": "CCCCCC=CC=C1C(=O)C=CC1CC=CCCCC(=O)O (stereo not shown)", "target": "Elongation factor 2, Cys41 (EEF2, Homo sapiens, UniProt P13639)", "test": "competitive isoTOP-ABPP", "system": "Ramos soluble proteome", "setting": "100 µM, 60 min, together with: iodoacetamide probe", "scale": "reference: DMSO over compound-treated, higher = stronger cysteine blockade", "measurement": "isoTOP-ABPP competition ratio", "result": 2}
{"Compound": "O=C(O)[C@@H]1O[C@@H](O[C@H]2[C@H](O)[C@H](O)[C@H](O[C@H]3[C@H](O)[C@H](O)[C@H](O[C@H]4[C@H](O)[C@H](O)[C@H](O)O[C@H]4C(=O)O)O[C@H]3C(=O)O)O[C@H]2C(=O)O)[C@@H](O)[C@@H](O)[C@@H]1O", "target": "Beta-lactoglobulin (LGB, Bos taurus, UniProt P02754, A134V/G80D)", "test": "isothermal titration calorimetry", "setting": "concentration not given, pH 4.00, 37 °C, 50 mM KH2PO4", "scale": "ligand per protein", "measurement": "binding stoichiometry", "result": 4.2}
{"note": "Excerpt of the above:"}
{"Compound": "CCCCCC=CC=C1C(=O)C=CC1CC=CCCCC(=O)O (stereo not shown)", "target": "Elongation factor 2, Cys41 (EEF2, Homo sapiens, UniProt P13639)", "test": "competitive isoTOP-ABPP", "system": "Ramos soluble proteome", "setting": "100 µM, 60 min, together with: iodoacetamide probe", "scale": "reference: DMSO over compound-treated, higher = stronger cysteine blockade", "measurement": "isoTOP-ABPP competition ratio", "result": 2}
